Experimental data collected from several papers.
Each numbered part is a random draw from the data of one study; scales do not carry over between parts. Changes are numbered by the printed parent chain.

Study 1
Target: ABI1, truncated, D143A, DHFR fusion (Arabidopsis thaliana)
Technique: DHFR PCA, deep sequencing
Medium: yeast
Setting: methotrexate growth selection, single substitutions
With: (+)-ABA 2500 µM
Baseline: wild-type fitted maximum
Reading: higher = stronger binding
Measurement: relative binding score
Parent: PYL1, truncated, DHFR fusion (Arabidopsis thaliana); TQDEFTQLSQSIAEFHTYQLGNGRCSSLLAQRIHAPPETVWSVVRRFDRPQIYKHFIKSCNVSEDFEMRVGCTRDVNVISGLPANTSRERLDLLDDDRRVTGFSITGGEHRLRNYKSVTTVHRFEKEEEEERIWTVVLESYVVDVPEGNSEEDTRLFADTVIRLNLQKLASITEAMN
M68E: 88.5%
A175T: 97.3%
I52D: 104%
I12H: 88.6%
Q51V: 75.2%
N114F: 72.2%
R45L: 16.7%
R113A: 111%
S104I: 88.6%
Y141G: 0.895%
P50E: 1.66%
D159K: 83.1%
R111K: 93.3%
V76D: 3.76%
I52C: 95.9%
L8M: 101%

Study 2
Target: CCND2, cyclin fold, Cln2 fusion (human)
Technique: yeast growth competition, sequencing
Medium: yeast
Setting: weak parent motif
Baseline: not given
Reading: higher = stronger binding
Measurement: normalised enrichment score
Parent: RB1 docking peptide (human); PKPLKKLRFDIEG
PKPLKKLRIDIEG [F9I]: 0.247
PKPLKYLRFDIEG [K6Y]: -0.163
PKPLKKLRFDIEN [G13N]: -0.222
PKPLKLLRFDIEG [K6L]: 0.456
PKPLKKLQFDIEG [R8Q]: -0.0565
PKPLKGLRFDIEG [K6G]: 0.255
PKPLKKRRFDIEG [L7R]: 0.51
PKPLWKLRFDIEG [K5W]: 0.115
PKPLKKLRNDIEG [F9N]: 0.578
PKPLKKLRFDCEG [I11C]: 0.301
PKPLKPLRFDIEG [K6P]: 0.179
PKPLKKDRFDIEG [L7D]: -0.123
PKPKKKLRFDIEG [L4K]: -0.145
PKPLKKLRVDIEG [F9V]: 0.196
PKPLKKGRFDIEG [L7G]: 0.0899
PKPLKKARFDIEG [L7A]: 0.425
PKPLKKLRFDING [E12N]: 0.582
PKPLKKLRFDILG [E12L]: -0.000983
PKPLTKLRFDIEG [K5T]: 0.348
PKPLKKLRFDIEY [G13Y]: -0.68
PKPLKKLRFDLEG [I11L]: 0.768
PKPLKKQRFDIEG [L7Q]: 0.0353

Study 3
Target: Centromere-binding protein 1, full length, His-tagged (CBF1, Saccharomyces cerevisiae, UniProt P17106, residues 1-351)
UniProt P17106, sequence (whole entry, looked up): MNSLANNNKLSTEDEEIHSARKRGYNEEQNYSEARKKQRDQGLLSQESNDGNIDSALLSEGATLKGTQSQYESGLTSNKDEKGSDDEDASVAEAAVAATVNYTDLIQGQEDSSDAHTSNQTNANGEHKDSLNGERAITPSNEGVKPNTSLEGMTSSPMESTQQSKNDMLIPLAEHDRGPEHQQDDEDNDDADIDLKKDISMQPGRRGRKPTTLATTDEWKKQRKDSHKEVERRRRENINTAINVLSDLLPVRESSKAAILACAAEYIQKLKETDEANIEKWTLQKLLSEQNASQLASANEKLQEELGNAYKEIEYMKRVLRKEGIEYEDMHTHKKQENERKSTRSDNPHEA
Technique: competition protein-binding microarray
Form: double-stranded DNA, one strand shown
Medium: in vitro
Concentration: 2 µM
Setting: whole 60-bp probe, lowest competitor level
With: Pho4 competitor, 0.05 µM
Reading: higher = stronger binding
Measurement: fluorescence intensity
All sequences stand within: … GTCTTGATTCGCTTGACGCTGCTG
TGCGCAACAACTTGCCTGGTGGGTGTATGTCTAGAA: 60.5 a.u.
ATAGAAAACTGCATAGTCGTGCTTTCAAACCTTTCT: 119 a.u.
ATTTATCATTTAAATCACATGGACACCCACCGAACT: 817 a.u.
CGGTAAATGAATCAGCATGTGAATTTTTCTAGAAAA: 187 a.u.
TGTGCTTGATAGCTTACCGTGCAAAAAATAATGGGT: 100 a.u.
GGTCTTCTTGTTTTTCACCTGCTCGACAGCTCTTTG: 71.9 a.u.
CGTCCTAGTGATTGTCACTTTACTTCCATGAGGAAG: 90.9 a.u.
TAGTTTTTCGCAAGCCATGCGTGTACTTTCGTTTTT: 83.1 a.u.
CGTCCTAGTGATTGTATCGTGGGTGCCATGAGGAAG: 76.2 a.u.
AGAACACCTTAGAACCACATGATGCGTACCTACTAC: 236 a.u.
GTCTTGTCTCATTGTGGTGTGGGTGTCCCCACTTCA: 71.4 a.u.
CGTATGTCAGATCCTCGCATGATAAAAGAAATTATG: 93.2 a.u.
GAATTACAGTTGGATGACATGTTGAACTCAGAAAAA: 76.9 a.u.
TGAAGTGCCTGGCATCAGGTGAAACGGACCCCAAAG: 68.7 a.u.
TAGTTGTCGTCGTTTCATGTGACGGATTCCCCTTTA: 149 a.u.
CGGGGTTAAGTTTGTCACGAAACTTGCTTGCAGCAG: 66.3 a.u.
AAAAGCAACTCGACCGTCGTGGGTACAATCCCCACC: 59.6 a.u.
CTAACGAAGGTTTGATAGGTGGGTGACAAGCCAAGT: 65.8 a.u.
TGATAGTTTTTCTCCCTCGTGAAGCAGCATGTTTTA: 105 a.u.

Study 4
Substance: PhoQ, residues 284 288 289 292 302 303 SSYNSA
Technique: Sort-seq
Item: YFP reporter
Medium: E. coli
Setting: PhoQ-PhoP variant library
With: 10 µM Mg2+
Baseline: high Mg2+ state
Reading: higher = stronger signaling
Measurement: fold induction
PhoP, residues 12 14 15 18 19 LHTVL (Escherichia coli, UniProt P23836): 24.9
PhoP, residues 12 14 15 18 19 TQAML (Escherichia coli, UniProt P23836): 16.9
PhoP, residues 12 14 15 18 19 NQCAL (Escherichia coli, UniProt P23836): 12.3
